Earlier results, collected from citations in different studies.

`C#CCN(Cc1ccccn1)Cc1ccccn1.F[P-](F)(F)(F)(F)F.[C-]#[O+].[C-]#[O+].[C-]#[O+].[Re+]` has an MIC of over 512 µg/mL (Bacillus subtilis, Staphylococcus aureus; incl. MRSA).
`Oc1c(Br)cc(I)c2nc3cc(Cl)c(Cl)cc3nc12` has an MIC of 0.3 µM (Staphylococcus aureus; MRSA).
The MIC of `N=C(N)NCCC[C@H](NC(=O)[C@H](Cc1c[nH]c2ccccc12)NC(=O)[C@H](CCC(N)=O)NC(=O)[C@H](Cc1c[nH]c2ccccc12)NC(=O)[C@H](CCCNC(=N)N)NC(=O)[C@@H](N)CCCNC(=N)N)C(=O)NCCCC[C@H](NC(=O)[C@H](CCCNC(=N)N)NC(=O)[C@H](Cc1c[nH]c2ccccc12)NC(=O)[C@H](CCC(N)=O)NC(=O)[C@H](Cc1c[nH]c2ccccc12)NC(=O)[C@H](CCCNC(=N)N)NC(=O)[C@@H](N)CCCNC(=N)N)C(=O)NCCCCCC(=O)N[C@@H](CSSC[C@H](NC(=O)CCCCCNC(=O)[C@H](CCCCNC(=O)[C@H](CCCNC(=N)N)NC(=O)[C@H](Cc1c[nH]c2ccccc12)NC(=O)[C@H](CCC(N)=O)NC(=O)[C@H](Cc1c[nH]c2ccccc12)NC(=O)[C@H](CCCNC(=N)N)NC(=O)[C@@H](N)CCCNC(=N)N)NC(=O)[C@H](CCCNC(=N)N)NC(=O)[C@H](Cc1c[nH]c2ccccc12)NC(=O)[C@H](CCC(N)=O)NC(=O)[C@H](Cc1c[nH]c2ccccc12)NC(=O)[C@H](CCCNC(=N)N)NC(=O)[C@@H](N)CCCNC(=N)N)C(N)=O)C(N)=O` is reported as 22 µM (Escherichia coli; broth microdilution; ATCC 25922).
`CCN1CCC(CCNCc2cc3ccccc3nc2SCc2ccccc2)CC1` has an MIC of 16 to 64 µg/mL (Pseudomonas aeruginosa; multidrug-resistant).
For `CSCC[C@H](NC(=O)[C@H](CCCNC(=N)N)NC(=O)[C@H](Cc1c[nH]c2ccccc12)NC(=O)[C@H](CCC(N)=O)NC(=O)[C@H](Cc1c[nH]c2ccccc12)NC(=O)[C@H](CCCNC(=N)N)NC(=O)[C@@H](N)CCCNC(=N)N)C(=O)N[C@@H](CCCCN)C(=O)N[C@@H](CCCCN)C(=O)N[C@@H](CC(C)C)C(=O)NCC(=O)NCCCC[C@H](NC(=O)CNC(=O)[C@H](CC(C)C)NC(=O)[C@H](CCCCN)NC(=O)[C@H](CCCCN)NC(=O)[C@H](CCSC)NC(=O)[C@H](CCCNC(=N)N)NC(=O)[C@H](Cc1c[nH]c2ccccc12)NC(=O)[C@H](CCC(N)=O)NC(=O)[C@H](Cc1c[nH]c2ccccc12)NC(=O)[C@H](CCCNC(=N)N)NC(=O)[C@@H](N)CCCNC(=N)N)C(=O)NCCCCCC(N)=O`, the MIC was 60 µM (Escherichia coli; broth microdilution; ATCC 11775).
The MIC of `Cc1ccc(/N=N/c2c(C)c(C(=O)Nc3ccccc3)c(N)n(-c3ccccc3)c2=O)cc1` is reported as 1.95 µg/mL (Streptococcus pneumoniae).
For `N=C(N)NCCC[C@H](NC(=O)[C@H](Cc1c[nH]c2ccccc12)NC(=O)[C@H](CCC(N)=O)NC(=O)[C@H](Cc1c[nH]c2ccccc12)NC(=O)[C@H](CCCNC(=N)N)NC(=O)[C@@H](N)CCCNC(=N)N)C(=O)NCCCC[C@H](NC(=O)[C@H](CCCNC(=N)N)NC(=O)[C@H](Cc1c[nH]c2ccccc12)NC(=O)[C@H](CCC(N)=O)NC(=O)[C@H](Cc1c[nH]c2ccccc12)NC(=O)[C@H](CCCNC(=N)N)NC(=O)[C@@H](N)CCCNC(=N)N)C(=O)NCCCCCC(N)=O`, the MIC was 6 µM (Escherichia coli; broth microdilution; ATCC 25922).
`CC(=O)N1CCc2cc(S(=O)(=O)N3CCN(c4cccc(C(F)(F)F)c4)CC3)ccc21` gave an MIC of over 64 µg/mL (Klebsiella pneumoniae; 10031).
`CC1(C)C2Cc3c(nc(O)c(C#N)c3-c3ccc(F)c(F)c3)C1C2` (centres unmarked) gave an MIC of 15600 µg/mL (Candida albicans).
The MIC of `CSCC[C@H](NC(=O)[C@H](CCCNC(=N)N)NC(=O)[C@H](Cc1c[nH]c2ccccc12)NC(=O)[C@H](CCC(N)=O)NC(=O)[C@H](Cc1c[nH]c2ccccc12)NC(=O)[C@H](CCCNC(=N)N)NC(=O)[C@@H](N)CCCNC(=N)N)C(=O)N[C@@H](CCCCN)C(=O)N[C@@H](CCCCN)C(=O)N[C@@H](CC(C)C)C(=O)NCC(=O)NCCCC[C@H](NC(=O)CNC(=O)[C@H](CC(C)C)NC(=O)[C@H](CCCCN)NC(=O)[C@H](CCCCN)NC(=O)[C@H](CCSC)NC(=O)[C@H](CCCNC(=N)N)NC(=O)[C@H](Cc1c[nH]c2ccccc12)NC(=O)[C@H](CCC(N)=O)NC(=O)[C@H](Cc1c[nH]c2ccccc12)NC(=O)[C@H](CCCNC(=N)N)NC(=O)[C@@H](N)CCCNC(=N)N)C(=O)NCCCCCC(=O)N[C@@H](CSSC[C@H](NC(=O)CCCCCNC(=O)[C@H](CCCCNC(=O)CNC(=O)[C@H](CC(C)C)NC(=O)[C@H](CCCCN)NC(=O)[C@H](CCCCN)NC(=O)[C@H](CCSC)NC(=O)[C@H](CCCNC(=N)N)NC(=O)[C@H](Cc1c[nH]c2ccccc12)NC(=O)[C@H](CCC(N)=O)NC(=O)[C@H](Cc1c[nH]c2ccccc12)NC(=O)[C@H](CCCNC(=N)N)NC(=O)[C@@H](N)CCCNC(=N)N)NC(=O)CNC(=O)[C@H](CC(C)C)NC(=O)[C@H](CCCCN)NC(=O)[C@H](CCCCN)NC(=O)[C@H](CCSC)NC(=O)[C@H](CCCNC(=N)N)NC(=O)[C@H](Cc1c[nH]c2ccccc12)NC(=O)[C@H](CCC(N)=O)NC(=O)[C@H](Cc1c[nH]c2ccccc12)NC(=O)[C@H](CCCNC(=N)N)NC(=O)[C@@H](N)CCCNC(=N)N)C(N)=O)C(N)=O` is reported as 15 µM (Escherichia coli; broth microdilution; ATCC 25922).
With `O=c1cc(-c2ccccc2)c2cc(Br)ccc2n1Cc1nnc2n1N=C(c1ccccc1)CS2` the MIC was 4 µg/mL (Pseudomonas aeruginosa).
`CCCCCCc1cc(-c2cc(Cl)sc2Cl)[nH]c(=O)c1C#N` gave an MIC of 78 µg/mL (Bacillus subtilis).
For `COC(=O)c1cnc(-c2nc(C)cs2)cc1C(=O)OC.O.O=[N+]([O-])[O-].O=[N+]([O-])[O-].[Cu+2]`, the MIC was 31.2 µg/mL (Candida albicans).
The MIC of `CCCC/C=C/C(=O)N[C@@H](Cc1cc(F)cc(F)c1)C(=O)N[C@@H](COC(=O)[C@@H]1CCCN1C(C)=O)C(=O)OC` is reported as 32 µg/mL (Bacillus subtilis).

A few entries again:
With `O=c1cc(-c2ccccc2)c2cc(Br)ccc2n1Cc1nnc2n1N=C(c1ccccc1)CS2` the MIC was 4 µg/mL (Pseudomonas aeruginosa).
